Assay results gathered from unrelated publications.
Numbered parts are unrelated; each lists some results of a single study.
Sequence of UniProt Q9HC98 (whole entry, looked up): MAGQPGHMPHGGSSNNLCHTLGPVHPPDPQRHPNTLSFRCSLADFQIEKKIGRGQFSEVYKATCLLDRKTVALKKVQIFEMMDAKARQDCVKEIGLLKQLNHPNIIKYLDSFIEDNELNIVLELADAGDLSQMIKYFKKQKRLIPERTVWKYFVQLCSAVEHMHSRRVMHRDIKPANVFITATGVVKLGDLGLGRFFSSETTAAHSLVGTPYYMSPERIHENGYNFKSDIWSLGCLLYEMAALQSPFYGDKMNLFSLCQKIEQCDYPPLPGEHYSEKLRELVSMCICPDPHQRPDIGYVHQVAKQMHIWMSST
Sequence of UniProt P42336 (whole entry, unmodified, looked up): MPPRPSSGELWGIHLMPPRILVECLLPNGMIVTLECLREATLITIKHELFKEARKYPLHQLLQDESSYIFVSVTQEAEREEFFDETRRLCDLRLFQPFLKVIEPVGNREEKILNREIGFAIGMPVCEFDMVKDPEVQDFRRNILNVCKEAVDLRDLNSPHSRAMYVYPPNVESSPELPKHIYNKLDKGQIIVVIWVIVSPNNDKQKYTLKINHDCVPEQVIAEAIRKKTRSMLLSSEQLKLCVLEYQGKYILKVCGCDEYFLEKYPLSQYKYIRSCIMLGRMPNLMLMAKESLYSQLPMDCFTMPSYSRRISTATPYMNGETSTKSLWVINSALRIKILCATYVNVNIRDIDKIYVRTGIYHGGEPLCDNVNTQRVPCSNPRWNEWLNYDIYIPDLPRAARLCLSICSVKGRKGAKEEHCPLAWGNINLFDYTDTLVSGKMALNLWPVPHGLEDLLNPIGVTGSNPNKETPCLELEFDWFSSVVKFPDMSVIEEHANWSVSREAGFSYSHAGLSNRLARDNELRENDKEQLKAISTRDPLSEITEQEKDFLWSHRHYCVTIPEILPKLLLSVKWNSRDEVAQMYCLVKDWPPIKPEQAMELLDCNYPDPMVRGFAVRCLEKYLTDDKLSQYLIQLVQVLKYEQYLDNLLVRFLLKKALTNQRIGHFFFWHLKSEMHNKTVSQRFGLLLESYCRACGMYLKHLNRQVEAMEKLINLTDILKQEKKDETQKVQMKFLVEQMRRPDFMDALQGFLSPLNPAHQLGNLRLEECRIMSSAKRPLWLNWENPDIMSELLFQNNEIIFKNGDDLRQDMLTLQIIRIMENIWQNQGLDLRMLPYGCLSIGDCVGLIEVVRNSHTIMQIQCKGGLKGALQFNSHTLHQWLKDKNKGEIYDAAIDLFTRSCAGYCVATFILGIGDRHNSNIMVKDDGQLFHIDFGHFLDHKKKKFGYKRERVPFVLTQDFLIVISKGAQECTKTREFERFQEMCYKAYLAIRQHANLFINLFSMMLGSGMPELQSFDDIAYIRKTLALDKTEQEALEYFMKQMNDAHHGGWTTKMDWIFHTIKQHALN
Sequence of UniProt P27361 (whole entry, looked up): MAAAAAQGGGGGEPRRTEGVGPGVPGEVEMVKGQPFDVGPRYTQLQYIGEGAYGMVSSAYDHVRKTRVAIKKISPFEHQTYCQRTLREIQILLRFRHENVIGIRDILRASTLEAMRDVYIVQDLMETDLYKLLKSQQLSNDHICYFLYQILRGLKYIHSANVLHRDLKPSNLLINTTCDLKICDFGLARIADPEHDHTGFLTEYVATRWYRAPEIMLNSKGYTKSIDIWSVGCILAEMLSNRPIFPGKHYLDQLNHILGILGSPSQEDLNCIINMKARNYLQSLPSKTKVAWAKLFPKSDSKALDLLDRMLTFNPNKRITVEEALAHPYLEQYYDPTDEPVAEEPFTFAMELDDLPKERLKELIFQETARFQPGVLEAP
Sequence of UniProt Q6NV75 (whole entry, looked up): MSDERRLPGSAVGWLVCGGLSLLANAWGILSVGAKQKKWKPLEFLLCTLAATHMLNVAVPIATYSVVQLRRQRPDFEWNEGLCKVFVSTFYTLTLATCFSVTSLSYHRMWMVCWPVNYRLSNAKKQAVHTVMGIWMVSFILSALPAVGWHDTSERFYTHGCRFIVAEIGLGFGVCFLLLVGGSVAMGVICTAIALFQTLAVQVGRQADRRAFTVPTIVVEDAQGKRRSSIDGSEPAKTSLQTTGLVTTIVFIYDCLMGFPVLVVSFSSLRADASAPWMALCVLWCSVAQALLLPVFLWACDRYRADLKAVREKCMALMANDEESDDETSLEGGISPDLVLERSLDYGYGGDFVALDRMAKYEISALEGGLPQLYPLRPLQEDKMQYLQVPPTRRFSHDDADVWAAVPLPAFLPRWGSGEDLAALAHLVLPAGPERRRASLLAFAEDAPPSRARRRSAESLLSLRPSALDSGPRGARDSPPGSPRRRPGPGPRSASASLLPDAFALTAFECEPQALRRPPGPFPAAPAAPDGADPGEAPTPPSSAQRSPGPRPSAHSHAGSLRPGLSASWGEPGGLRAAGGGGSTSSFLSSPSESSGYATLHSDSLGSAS
Sequence of UniProt P48730 (whole entry, looked up): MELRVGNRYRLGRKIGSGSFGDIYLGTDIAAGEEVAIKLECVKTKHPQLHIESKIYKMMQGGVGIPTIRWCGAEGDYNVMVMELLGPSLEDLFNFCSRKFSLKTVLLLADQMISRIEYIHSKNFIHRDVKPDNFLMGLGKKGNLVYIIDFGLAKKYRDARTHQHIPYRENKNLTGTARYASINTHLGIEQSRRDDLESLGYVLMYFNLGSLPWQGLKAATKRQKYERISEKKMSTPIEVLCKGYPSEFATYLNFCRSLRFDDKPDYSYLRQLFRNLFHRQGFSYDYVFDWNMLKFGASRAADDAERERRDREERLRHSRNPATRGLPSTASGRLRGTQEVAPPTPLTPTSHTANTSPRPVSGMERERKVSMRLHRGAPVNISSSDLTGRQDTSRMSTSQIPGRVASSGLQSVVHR
Sequence of UniProt Q9HBH9 (whole entry, looked up): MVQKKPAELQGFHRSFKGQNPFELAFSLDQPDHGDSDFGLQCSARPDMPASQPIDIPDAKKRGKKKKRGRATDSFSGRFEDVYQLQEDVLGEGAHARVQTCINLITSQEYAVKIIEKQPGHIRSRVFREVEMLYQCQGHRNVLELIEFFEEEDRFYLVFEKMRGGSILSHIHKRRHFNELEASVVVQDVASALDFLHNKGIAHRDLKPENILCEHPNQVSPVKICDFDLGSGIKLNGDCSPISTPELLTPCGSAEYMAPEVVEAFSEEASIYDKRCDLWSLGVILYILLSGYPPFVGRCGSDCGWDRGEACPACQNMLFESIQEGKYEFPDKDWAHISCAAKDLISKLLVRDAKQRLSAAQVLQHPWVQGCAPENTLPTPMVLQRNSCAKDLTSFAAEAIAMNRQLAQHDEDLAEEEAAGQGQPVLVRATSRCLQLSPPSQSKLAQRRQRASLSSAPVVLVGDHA
Sequence of UniProt P42681 (whole entry, looked up): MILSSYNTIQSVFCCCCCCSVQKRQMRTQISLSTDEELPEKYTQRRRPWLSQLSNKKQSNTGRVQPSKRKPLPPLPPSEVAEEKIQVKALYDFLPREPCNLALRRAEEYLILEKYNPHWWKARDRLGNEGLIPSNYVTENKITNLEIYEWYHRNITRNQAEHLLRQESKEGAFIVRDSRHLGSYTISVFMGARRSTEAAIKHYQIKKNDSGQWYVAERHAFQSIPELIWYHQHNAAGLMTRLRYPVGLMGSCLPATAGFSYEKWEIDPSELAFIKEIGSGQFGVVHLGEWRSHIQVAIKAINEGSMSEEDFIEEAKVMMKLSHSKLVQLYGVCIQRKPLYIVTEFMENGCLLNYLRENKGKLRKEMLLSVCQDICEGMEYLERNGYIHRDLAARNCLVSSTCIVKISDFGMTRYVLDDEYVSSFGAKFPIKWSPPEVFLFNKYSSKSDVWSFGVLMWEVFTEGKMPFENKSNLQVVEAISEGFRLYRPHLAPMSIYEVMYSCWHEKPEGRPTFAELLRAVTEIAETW
Sequence of UniProt Q02763 (whole entry, looked up): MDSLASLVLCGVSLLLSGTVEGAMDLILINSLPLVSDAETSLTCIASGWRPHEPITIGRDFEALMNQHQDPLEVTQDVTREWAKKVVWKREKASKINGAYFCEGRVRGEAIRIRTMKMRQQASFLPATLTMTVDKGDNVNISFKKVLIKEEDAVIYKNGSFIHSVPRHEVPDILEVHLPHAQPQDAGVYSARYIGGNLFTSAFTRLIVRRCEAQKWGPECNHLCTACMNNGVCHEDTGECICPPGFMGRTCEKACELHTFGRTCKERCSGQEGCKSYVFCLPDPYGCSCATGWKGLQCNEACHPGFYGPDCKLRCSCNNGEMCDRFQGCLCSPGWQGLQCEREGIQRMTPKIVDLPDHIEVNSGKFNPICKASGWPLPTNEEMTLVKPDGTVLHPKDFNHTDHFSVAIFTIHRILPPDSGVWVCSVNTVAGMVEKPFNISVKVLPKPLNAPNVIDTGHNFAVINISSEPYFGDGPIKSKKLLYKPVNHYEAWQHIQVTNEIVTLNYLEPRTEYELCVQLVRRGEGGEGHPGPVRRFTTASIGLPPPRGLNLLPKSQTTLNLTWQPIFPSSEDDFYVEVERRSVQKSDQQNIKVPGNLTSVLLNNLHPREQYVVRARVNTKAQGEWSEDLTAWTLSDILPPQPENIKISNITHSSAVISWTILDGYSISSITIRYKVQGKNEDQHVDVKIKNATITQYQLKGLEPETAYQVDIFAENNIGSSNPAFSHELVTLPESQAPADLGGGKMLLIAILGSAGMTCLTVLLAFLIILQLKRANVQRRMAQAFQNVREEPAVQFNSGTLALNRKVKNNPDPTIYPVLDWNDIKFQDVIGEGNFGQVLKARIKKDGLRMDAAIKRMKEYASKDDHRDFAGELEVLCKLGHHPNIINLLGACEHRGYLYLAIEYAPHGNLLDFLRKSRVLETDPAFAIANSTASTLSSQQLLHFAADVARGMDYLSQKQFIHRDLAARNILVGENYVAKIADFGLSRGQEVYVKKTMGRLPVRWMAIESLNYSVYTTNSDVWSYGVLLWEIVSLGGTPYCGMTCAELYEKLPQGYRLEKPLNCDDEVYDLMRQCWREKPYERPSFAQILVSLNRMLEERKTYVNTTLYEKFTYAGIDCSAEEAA

Series 1
Compound: CCOc1cc2ncnc(Nc3cccc(Br)c3)c2cc1OCC
Effect on: enzyme activity
Action: inhibitor
Concentration: 0.5 µM
Reference: control
It gave 101% for remaining activity (MAPKAPK2 (Homo sapiens, UniProt P49137)).
The remaining activity was 106% (NEK6 (Homo sapiens, UniProt Q9HC98)).
It gave 102% for remaining activity (JAK3 (Homo sapiens, UniProt P52333)).
It gave 52.9% for remaining activity (LCK (Homo sapiens, UniProt P06239)).
GSK3B (Homo sapiens, UniProt P49841) — remaining activity: 96.8%.
For MAPK3 (Homo sapiens, UniProt P27361): remaining activity read 113%.
NEK1 (Homo sapiens, UniProt Q96PY6) — remaining activity: 99.2%.
It gave 83.3% for remaining activity (EPHA3 (Homo sapiens, UniProt P29320)).
It gave 52.1% for remaining activity (ABL2 (Homo sapiens, UniProt P42684)).
TAOK2 (Homo sapiens, UniProt Q9UL54) — remaining activity: 101%.
For FGFR1 (Homo sapiens, UniProt P11362): remaining activity read 90.9%.
TBK1 (Homo sapiens, UniProt Q9UHD2) — remaining activity: 85.4%.
For TEK (Homo sapiens, UniProt Q02763): remaining activity read 96.4%.
For CSNK1G2 (Homo sapiens, UniProt P78368): remaining activity read 103%.

Series 2
SMILES: COc1ccc2c(O[C@@H]3C[C@H]4C(=O)N[C@]5(C(=O)O)CC5/C=C\CCCCC[C@H](NC(=O)OC5CCCC5)C(=O)N4C3)cc(-c3csc(NC(=O)C(C)C)n3)nc2c1C (stereo partly shown)
Concentration: 1 µM
BMPR1B (Homo sapiens, UniProt O00238); cell-free assay, competition with immobilised ligand — remaining binding: 77%.
For Ribosomal protein S6 kinase alpha-6, C-terminal kinase domain (RPS6KA6, Homo sapiens, UniProt Q9UK32); cell-free assay, competition with immobilised ligand: remaining binding read 100%.
It gave 44% for remaining binding (MELK (Homo sapiens, UniProt Q14680); cell-free assay, competition with immobilised ligand).
It gave 70% for remaining binding (MKNK2 (Homo sapiens, UniProt Q9HBH9); cell-free assay, competition with immobilised ligand).
The remaining binding was 100% (WNK3 (Homo sapiens, UniProt Q9BYP7); cell-free assay, competition with immobilised ligand).
It gave 70% for remaining binding (PIK3CA (Homo sapiens, UniProt P42336, Q546K); cell-free assay, competition with immobilised ligand).
The remaining binding was 86% (TXK (Homo sapiens, UniProt P42681); binding, competition with immobilised ligand).
For MET (Homo sapiens, UniProt P08581, Y1235D); cell-free assay, competition with immobilised ligand: remaining binding read 100%.
For CDK19 (Homo sapiens, UniProt Q9BWU1); competition binding: remaining binding read 90%.
It gave 100% for remaining binding (EPHA8 (Homo sapiens, UniProt P29322); cell-free assay, competition with immobilised ligand).
For EPHA7 (Homo sapiens, UniProt Q15375); cell-free assay, competition with immobilised ligand: remaining binding read 100%.
For TTK (Homo sapiens, UniProt P33981); cell-free assay, competition with immobilised ligand: remaining binding read 100%.
The remaining binding was 100% (CSNK1D (Homo sapiens, UniProt P48730); cell-free assay, competition with immobilised ligand).
It gave 100% for remaining binding (LIM domain kinase 2 (LIMK2, Homo sapiens, UniProt P53671); cell-free assay, competition with immobilised ligand).
For TAOK3 (Homo sapiens, UniProt Q9H2K8); cell-free assay, competition with immobilised ligand: remaining binding read 88%.

Series 3
Structure (SMILES): NC(N)=NC(=O)c1nc(Cl)c(N2CCCCCC2)nc1N
Effect on: β-arrestin recruitment
Action: agonist
Method: PRESTO-Tango
Concentration: 10 µM
Reference: untreated
Galanin receptor type 3 (Homo sapiens, UniProt O60755) — “fold over basal”: 0.68 fold.
For DRD4 (Homo sapiens, UniProt P21917): “fold over basal” read 0.83.
The “fold over basal” was 0.96 (S1PR2 (Homo sapiens, UniProt O95136)).
PTGER2 (Homo sapiens, UniProt P43116) — “fold over basal”: 0.6.
The “fold over basal” was 0.7 (CHRM3 (Homo sapiens, UniProt P20309)).
For GPER1 (Homo sapiens, UniProt Q99527): “fold over basal” read 0.79.
Probable G-protein coupled receptor 153 (GPR153, Homo sapiens, UniProt Q6NV75) — “fold over basal”: 0.92.
The “fold over basal” was 0.7 fold (UTS2R (Homo sapiens, UniProt Q9UKP6)).
It gave 1.17 for “fold over basal” (Proteinase-activated receptor 3 (F2RL2, Homo sapiens, UniProt O00254)).
GPR37L1 (Homo sapiens, UniProt O60883) — “fold over basal”: 0.64.
Trace amine-associated receptor 6 (TAAR6, Homo sapiens, UniProt Q96RI8) — “fold over basal”: 1.1 fold.
It gave 1 for “fold over basal” (ADRA2A (Homo sapiens, UniProt P08913)).

Series 4
Organism: Sarcocystis neurona
Effect on: parasite growth
Concentration: 10 µM
Time: 96 h
Setting: secondary screen
`CN(C)CCC=C1c2ccccc2COc2ccccc21` has an inhibition of -21.2%.
For `C=C(CC)C(=O)c1ccc(OCC(=O)O)c(Cl)c1Cl`, the inhibition was 11.5%.
`C=CC1=C(C(=O)O)N2C(=O)[C@@H](NC(=O)/C(=N\O)c3csc(N)n3)[C@H]2SC1` has an inhibition of -9.3%.
`Cn1cc[nH]c1=S` has an inhibition of -16.4%.
For `N[C@@H](C(=O)N[C@@H]1C(=O)N2C(C(=O)O)=C(CSc3c[nH]nn3)CS[C@H]12)c1ccc(O)cc1`, the inhibition was -25.4%.
`O=C(O)CCc1nc(-c2ccccc2)c(-c2ccccc2)o1` has an inhibition of -17.3%.
For `CCCCNC(=O)NS(=O)(=O)c1ccc(C)cc1`, the inhibition was -23.8%.
`CCCC(=O)Nc1ccc(OCC(O)CNC(C)C)c(C(C)=O)c1` (stereo not shown) gave an inhibition of -48%.
`NS(=O)(=O)c1cc2c(cc1Cl)NCNS2(=O)=O` gave an inhibition of -2.9%.
The inhibition of `C#C[C@]1(OC(C)=O)CC[C@H]2[C@@H]3CCC4=CC(=O)CC[C@@H]4[C@H]3CC[C@@]21C` is reported as -14.9%.
`C[C@H]1c2cccc(O)c2C(=O)C2=C(O)[C@]3(O)C(=O)C(C(N)=O)=C(O)[C@@H](N(C)C)[C@@H]3[C@@H](O)[C@@H]21` has an inhibition of 4%.

A few entries again (series 1):
For FGFR1 (Homo sapiens, UniProt P11362): remaining activity read 90.9%.
It gave 102% for remaining activity (JAK3 (Homo sapiens, UniProt P52333)).
TAOK2 (Homo sapiens, UniProt Q9UL54) — remaining activity: 101%.
For CSNK1G2 (Homo sapiens, UniProt P78368): remaining activity read 103%.
